Assay results from different studies.
Values joined by “and” are separate records of one study, mostly repeats; a detail may differ. Numbers after ± are the reported error.
Chain of UniProt O15218 (whole entry, looked up): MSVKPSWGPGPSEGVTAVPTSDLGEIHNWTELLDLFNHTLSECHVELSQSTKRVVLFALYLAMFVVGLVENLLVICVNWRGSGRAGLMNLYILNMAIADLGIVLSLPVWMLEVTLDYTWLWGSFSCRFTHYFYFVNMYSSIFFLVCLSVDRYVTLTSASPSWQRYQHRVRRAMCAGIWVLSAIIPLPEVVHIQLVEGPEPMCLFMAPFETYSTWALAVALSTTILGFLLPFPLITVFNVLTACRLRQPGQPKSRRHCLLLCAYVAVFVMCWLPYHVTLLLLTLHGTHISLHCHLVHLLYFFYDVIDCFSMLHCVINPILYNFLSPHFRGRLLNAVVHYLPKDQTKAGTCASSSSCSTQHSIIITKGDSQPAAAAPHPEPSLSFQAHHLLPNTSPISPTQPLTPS

Compound | target or system | assay | test system | setting | scale | measurement | value
C[C@]12CC[C@H](O)C[C@H]1CC[C@@H]1[C@@H]2CC[C@]2(C)[C@@H](c3ccc(=O)oc3)CC[C@]12O | MCF7 | RT-qPCR, refers to: AGR2 | – | 20 nM, 48 h, without estradiol, unit not given | relative to: untreated | mRNA level | 0.631 and 0.822 and 0.536
COc1cc(CCC[P+](c2ccccc2)(c2ccccc2)c2ccccc2)c(OC)c2c1OCO2.[I-] | EKVX | SRB | – | – | – | TGI | -4.45 log M
C[C@]1(CO)Cc2ncn(-c3ccc(C#N)c(Cl)c3)c2C(=O)O1 | – | – | Japanese subjects | 3 mg single dose | – | drug-related Acne incidence | 0%
COc1cc2c(Oc3ccc4[nH]c(C)cc4c3F)ccnc2cc1OCC1(N)CC1 | – | – | paediatric recurrent refractory sarcoma | 12 mg | – | grade 3 Diarrhoea | 0%
Cc1cnc2ccc3c(nc(N)n3C)c2n1 | BALB/c 3T3 | colony forming efficiency | – | 10 µM | – | colony number | 94 colonies per plate and 92 colonies per plate and 87 colonies per plate
Nc1nc2nc[nH]c2c(=S)[nH]1 | HCT-116 | clonogenic | – | 0.625 µM, 10 days | – | surviving fraction | 0.967
CC[C@H](C)[C@H](NC(=O)[C@H](Cc1ccccc1)NC(=O)[C@H](CCC(=O)O)NC(=O)[C@H](CCCNC(=N)N)NC(=O)[C@H](C)NC(=O)[C@H](C)NC(=O)[C@H](CCC(N)=O)NC(=O)[C@H](CCC(=O)O)NC(=O)[C@H](CCC(=O)O)NC(=O)[C@H](CC(C)C)NC(=O)[C@H](Cc1ccc(O)cc1)NC(=O)[C@H](CO)NC(=O)[C@H](CO)NC(=O)[C@@H](NC(=O)[C@H](CC(=O)O)NC(=O)[C@H](CO)NC(=O)[C@@H](NC(=O)[C@H](Cc1ccccc1)NC(=O)[C@@H](NC(=O)CNC(=O)[C@H](CCC(=O)O)NC(=O)[C@H](C)NC(=O)CCc1c[nH]cn1)[C@@H](C)O)[C@@H](C)O)C(C)C)C(=O)N[C@@H](C)C(=O)N[C@@H](Cc1c[nH]c2ccccc12)C(=O)N[C@@H](CC(C)C)C(=O)N[C@H](C(=O)N[C@@H](CCCNC(=N)N)C(=O)NCC(=O)N[C@@H](CCCNC(=N)N)C(=O)N[C@@H](CCCCNC(=O)COCCOCCNC(=O)COCCOCCNC(=O)CC[C@H](NC(=O)CCCCCCCCCCCCCCCCC(=O)O)C(=O)O)C(=O)NCC(=O)NCC(=O)N[C@@H](CO)C(=O)N[C@@H](CCCCNc1c(NCCCCCN(O)C(=O)CCC(=O)NCCCCCN(O)C(=O)CCC(=O)NCCCCCN(O)C(C)=O)c(=O)c1=O)C(=O)O)C(C)C [zirconium-89 labelled] | – | – | rat, intestine | iv, 3 nmol/kg, 4 h, ex vivo | – | tissue uptake | 0.31 %ID/g
CO[C@H]1C[C@@H]2CC[C@@H](C)[C@@](O)(O2)C(=O)C(=O)N2CCCC[C@H]2C(=O)O[C@H]([C@H](C)C[C@@H]2CC[C@@H](OC(=O)NCCOCCOCCOCCOCCOCCOCCOCCOCCC(=O)N3CCc4cc(Cn5nc(-c6ccc7oc(N)nc7c6)c6c(N)ncnc65)ccc4C3)[C@H](OC)C2)C[C@@H](O)[C@H](C)/C=C(\C)[C@@H](O)[C@@H](OC)C(=O)[C@H](C)C[C@H](C)/C=C/C=C/C=C/1C | – | – | patients with advanced solid tumours | intravenous, 8 mg weekly, grade 3 or higher | – | decreased appetite leading to dose reduction | 0%
Nc1ncnc2c1ncn2[C@@H]1O[C@@H]2COP(=O)(O)O[C@H]3[C@@H](O)[C@H](n4cnc5c(=O)[nH]cnc54)O[C@@H]3COP(=O)(O)O[C@H]2[C@H]1O | HFF-1 | RNA sequencing, refers to: Interferon Signaling | – | upregulated pathway | relative to: Zika virus alone | pathway fold enrichment | 8.94
Cc1cc(C(C)(C)c2ccc(O)c(C)c2)ccc1O | HepG2 spheroids | Hoechst flow cytometry | – | 40 µM, 24 h | – | S phase cells | 6.85 ± 1.24%
Ic1cccc2cnccc12 | mouse DRG neurons, wild type | – | – | 30 µM, 2 h, readout at 48 h, with: rotenone 25 µM, 3 h pulse | – | neuronal cell death | ≤ 22%
Nc1ccc([N+](=O)[O-])cc1 | human cells | reporter gene, agonist, luciferase reporter | – | – | relative to: positive control | Emax | 3.23%
CC(C)N1CCC(NC2CCN(c3cccc(-c4cc5cc(F)ccc5[nH]4)c3)CC2)CC1 | DU-145 | – | – | – | – | CC50 | 5.75 µM
Cn1cncc1C1=CN(c2ncnc3[nH]cnc23)CCS1 | UACC-257 | – | – | melanoma cell line | – | CC50 | > 200 µM
Nc1ncc(-c2nc(N3CCOCC3)nc(N3CCOCC3)n2)c(C(F)F)n1 | CAL-27 | – | – | 72 h | – | GI50 | 0.189 µM
COCCCn1c(N)c(C(=O)NC2CCCC2)c2nc3ccccc3nc21 | OCI-Ly1 | – | – | 1 µM, 120 h | – | viability | 151%
Cc1nn(-c2nc3ccc(Cl)c(Cl)c3[nH]2)c(O)c1C1OC(=O)c2ccccc21 (stereo not drawn) | RAW-ISG | CCK-8 | – | 30 µM | – | viability | 92.5% and 102% and 103% and 104%
CN1CCN(C2(CNC3CCN(c4cccc(-c5cc6cc(F)ccc6[nH]5)c4)CC3)CCC2)CC1 | DU-145 | – | – | – | – | CC50 | 5.45 µM
Oc1ccc2c3c1O[C@H]1[C@@H](O)CC[C@@]4(O)[C@@H](C2)N(CC2CCC2)CC[C@]314 | G-protein coupled receptor 182 (GPR182, Homo sapiens, UniProt O15218) | β-arrestin recruitment, TANGO luminescence, refers to: GPR182 | – | concentration not given | relative to: basal luminescence | log2 fold change | 0.287
COc1c(CCC[P+](c2ccccc2)(c2ccccc2)c2ccccc2)cc2c(c1OC)OCO2.[I-] | UACC-257 | SRB | – | – | – | LC50 | -4.24 log M
CC[C@H](C)[C@@H]1NC(=O)[C@@H]2CCCN2C(=O)[C@H](CC(C)C)NC(=O)[C@H](CC(C)C)NC(=O)CNC(=O)[C@@H](NC(=O)[C@@H](NC(=O)[C@H](CC(=O)O)NC(=O)CNC(=O)[C@@H](NC(=O)[C@H](C)NC(=O)CNC(=O)[C@H](CCCCN)NC(=O)[C@H](CC(C)C)NC(=O)[C@H](CC(C)C)NC(=O)[C@H](CCCCN)NC(=O)CNC(=O)[C@@H](NC(=O)[C@@H](N)CC(C)C)C(C)C)C(C)C)C(C)C)CSSC[C@@H](C(=O)O)NC1=O | – | RNA-seq, refers to: Irak3 | mouse, traumatic brain injury model, frontal cortex and hippocampus | dose not given | relative to: TBI alone | log2 fold change | -2.67
O=C(O)C[C@H](NC(=O)[C@H](CC(=O)O)NC(=O)[C@H](CC(=O)O)NC(=O)[C@H](CC(=O)O)NC(=O)[C@H](CC(=O)O)NC(=O)[C@H](CC(=O)O)NC(=O)[C@H](CC(=O)O)NC(=O)[C@H](CC(=O)O)NC(=O)[C@H](CC(=O)O)NC(=O)[C@H](CC(=O)O)NC(=O)[C@H](CC(=O)O)NC(=O)[C@H](CCCCNC(=O)c1ccc(C(=O)NCCOCCOB2BBBBBB3BBBB3B2)cc1)NC(=O)CN1CCN(CC(=O)O)CCN(CC(=O)O)CCN(CC(=O)O)CC1)C(=O)O [gallium-67 labelled] | – | gamma counting | mouse, ddY, male, 6 weeks old, femur | intravenous, 37 kBq, 3 h | – | tissue uptake | 7.13 %ID/g
CCN(CC)c1ccc(C=NNC(=O)CSc2nc3ccccc3c(=O)n2Cc2ccc(S(N)(=O)=O)cc2)c(O)c1 | EKVX | NCI five-dose screen | – | – | – | CC50 | > 100 µM
C[C@H]1CN(c2n[nH]c3nc(N[C@H]4CC[C@H](NS(=O)(=O)CCC(F)(F)F)CC4)ncc23)CCO1 | PRKACA (Homo sapiens, UniProt P17612) | inhibitor, Kinobeads competition profiling | – | 0.032 µM | relative to: vehicle | relative abundance | 0.92
C[C@@H](O)[C@H](NC(=O)[C@@H]1CSSC[C@H](NC(=O)[C@@H](Cc2ccccc2)NC(=O)CN2CCN(CC(=O)[O-])CCN(CC(=O)[O-])CCN(CC(=O)[O-])CC2)C(=O)N[C@@H](Cc2ccc(O)cc2)C(=O)N[C@H](Cc2c[nH]c3ccccc23)C(=O)N[C@@H](CCCCN)C(=O)N[C@@H]([C@@H](C)O)C(=O)N1)C(=O)O.[177Lu+3] | MEC1 treated with 200 µM zebularine | gamma counter | – | 240 min efflux after 2 h loading | – | retention | 27.4%
COc1c(C)c2c(c(O)c1C/C=C(\C)CCC(=O)O)C(=O)OC2 | HL-60 | cell proliferation | blood cancer | – | – | IC50 | 0.257 µM
O=C1CCP(=S)(c2ccccc2)CC1 | HCT-116 | MTT | – | 72 h | relative to: IC50 HaCaT over IC50 HCT-116 | selectivity index | 3.2
